Assay results of several laboratories.
Compare with care: the assays were run in different laboratories.
Target: Platelet-derived growth factor receptor alpha (PDGFRA, Homo sapiens, UniProt P16234)

| SMILES | assay | setting | how to read | quantity | value |
| --- | --- | --- | --- | --- | --- |
| COc1ccc(NC(=O)Nc2ccc3c(c2)C(=O)N(C(C)CO)CC(C)C(CN(C)Cc2ccc4c(c2)OCO4)O3)cc1 (stereo not shown) | binding, competition with immobilised ligand | 10 µM |  | remaining binding | 90% |
| COc1cc(-n2cc3cc(F)cc(C(N)=O)c3n2)cc(Cl)c1C1CC(O)(CCO)Cc2ccccc21 (stereo not shown) | enzyme activity, inhibitor | 10 µM |  | inhibition | 3.36% |
| C=CC(=O)N1CCc2ccc(-n3c(=O)ccc4cnc5ccc(-c6cnn(C)c6)cc5c43)cc21 | KINOMEscan | 1 µM | baseline: DMSO control | remaining binding | 69% |
| CN1CC[C@@H](COc2cnc(C#N)cc2-c2ccn3nc(NC(=O)C4CC4)cc3c2)C1 | enzyme activity, inhibitor | 1 µM |  | inhibition | 2% |
| COc1ccc(C(=O)/C=C/c2ccccc2-c2c[nH]c3ccc(C#N)cc23)c(O)c1 | enzyme activity, inhibitor | 20 µM |  | inhibition | 0% |
| CNS(=O)(=O)Nc1nccc(Cc2c(C)c3ccc(Oc4ncccc4F)cc3oc2=O)c1F | cell-free assay, competition with immobilised ligand | 10 µM |  | remaining binding | 100% |
| CN1CCN(Cc2ccc(NC(=O)c3cccc(C#Cc4cnc(N)c5ncccc45)c3)cc2C(F)(F)F)CC1 | cell-free assay, competition with immobilised ligand | 0.5 µM |  | remaining binding | 0.3% |
| CNC1C[S+]2CC[S+]3CC[S+](C1)[Ru-4]321([N]=C=S)[n]2c3ccc(OC)cc3c3c4c(c5cc(F)c[n+]1c5c32)C(=O)NC4=O (stereo not shown) | KinomeScan | 0.1 µM | baseline: untreated | remaining binding | 57% |
| NC(=O)C[C@H]1CCc2sc3ncnc(O[C@H]4CC[C@H](N5CCOCC5)CC4)c3c21 | enzyme activity, inhibitor | 10 µM |  | inhibition | 7% |
| O=C=[N][Ru-4]123([n]4c5ccc(O)cc5c5c6c(c7cc(F)c[n+]1c7c54)C(=O)NC6=O)[S+]1CC[S+]2CC[S+]3CC1 (stereo not shown) | enzyme activity | 100 nM, human enzyme, added: 10 µM ATP | baseline: untreated | remaining activity | 127% |
| COc1cc(OC)c(F)c(/C=C/c2cnc3ccn(S(=O)(=O)c4cn(CCF)cn4)c3n2)c1F |  | 10 nM |  | inhibition | 0% |
| CC(=O)N1c2ccc(-c3ccc(CNC(=O)c4cn5cc(-c6cnc(N)nc6)nc(N6CCOCC6)c5n4)cc3)cc2CC[C@@H]1C | KINOMEscan | 10 µM |  | remaining binding | 95% |
| COc1c(OCCCN2CCOCC2)ccc2c1N=C(NC(=O)c1cnc(N)nc1)N1CCN=C21 | kinase activity, inhibitor | 1 µM | baseline: untreated control | remaining activity | 97% |
| C=CC(=O)Nc1cccc(-c2cnc3[nH]cc(C(=O)NC(C)(C)C)c3n2)c1 | enzyme activity, inhibitor | 0.1 µM |  | inhibition | 22% |
| Nc1ncc(-c2cc(-c3cnn(CC(F)(F)F)c3)ncc2F)nc1C(=O)NC1CNCC(F)C1 (stereo not shown) | enzyme activity | 1 µM | baseline: DMSO control | remaining activity | 100% |
| Cc1cccc(O[C@H]2CCC[C@@H](C(C)CNCc3ccncc3)C2)c1 (relative stereo) | enzyme activity, inhibitor | 10 µM |  | inhibition | -3% |
| COc1cc(Nc2nccc(-c3cnn4nc(OC)ccc34)n2)cc(C(F)(F)F)c1 | binding, competition with immobilised ligand | 1 µM |  | remaining binding | 92% |
| CCn1cc(C(=O)O)c(=O)c2c(N)c(F)c(NC3CCCCC3)cc21 | kinase activity | 0.1 µM, added: ATP at Km |  | inhibition | -1.7% |
| CC(C)=CC1OC(C)(C)C2C=C3C(=O)C(Cl)=CC(O)C3C3C(O)C4OC4C(=O)C132 (stereo not shown) | cell-free assay, competition with immobilised ligand | 10 µM |  | remaining binding | 68% |
| Cc1nc2c(F)cc(-c3nc(Nc4ccc(CNC(=O)CCCCCCC(=O)NO)cc4)ncc3F)cc2n1C(C)C | enzyme activity, inhibitor | 1 µM |  | inhibition | 12% |
| CNC(=O)c1cnc(Nc2ccncc2)nc1-c1ccc(C)cc1 | cell-free assay, competition with immobilised ligand | 10 µM |  | remaining binding | 26% |
| C=CC(=O)N1Cc2nc(-c3cc(-c4cc(Cl)cnc4Cl)c(F)cc3F)n(-c3ccncn3)c2C1 | cell-free assay, inhibitor | 1 µM |  | inhibition | -1.8% |
| CN1CCN(Cc2ccc(-c3ccc(CO[C@H]4CCC[C@@H]4NC(=O)c4cc(-c5cnn(C)c5)cnc4N)cc3)cc2)CC1 | enzyme activity, inhibitor | 0.1 µM |  | inhibition | 3% |
| Cc1cnc2nc1Nc1cccc(c1)COC/C=C/COCc1cc(ccc1OCCN1CCOCC1)N2 | binding | 0.1 µM |  | remaining binding | 92% |
| Nc1ncc2c(n1)-c1c([nH]c3ccc(C4=CCOCC4)cc13)CCC2 | binding, competition with immobilised ligand | 1 µM |  | remaining binding | 100% |

For quick reference, copied from above:
| SMILES | assay | setting | how to read | quantity | value |
| --- | --- | --- | --- | --- | --- |
| C=CC(=O)N1CCc2ccc(-n3c(=O)ccc4cnc5ccc(-c6cnn(C)c6)cc5c43)cc21 | KINOMEscan | 1 µM | baseline: DMSO control | remaining binding | 69% |
| CC(C)=CC1OC(C)(C)C2C=C3C(=O)C(Cl)=CC(O)C3C3C(O)C4OC4C(=O)C132 (stereo not shown) | cell-free assay, competition with immobilised ligand | 10 µM |  | remaining binding | 68% |
| CN1CC[C@@H](COc2cnc(C#N)cc2-c2ccn3nc(NC(=O)C4CC4)cc3c2)C1 | enzyme activity, inhibitor | 1 µM |  | inhibition | 2% |
